Assay results pooled from the literature.
A part holds a random share of what one study measured.
Chain of UniProt Q13153 (whole entry, looked up): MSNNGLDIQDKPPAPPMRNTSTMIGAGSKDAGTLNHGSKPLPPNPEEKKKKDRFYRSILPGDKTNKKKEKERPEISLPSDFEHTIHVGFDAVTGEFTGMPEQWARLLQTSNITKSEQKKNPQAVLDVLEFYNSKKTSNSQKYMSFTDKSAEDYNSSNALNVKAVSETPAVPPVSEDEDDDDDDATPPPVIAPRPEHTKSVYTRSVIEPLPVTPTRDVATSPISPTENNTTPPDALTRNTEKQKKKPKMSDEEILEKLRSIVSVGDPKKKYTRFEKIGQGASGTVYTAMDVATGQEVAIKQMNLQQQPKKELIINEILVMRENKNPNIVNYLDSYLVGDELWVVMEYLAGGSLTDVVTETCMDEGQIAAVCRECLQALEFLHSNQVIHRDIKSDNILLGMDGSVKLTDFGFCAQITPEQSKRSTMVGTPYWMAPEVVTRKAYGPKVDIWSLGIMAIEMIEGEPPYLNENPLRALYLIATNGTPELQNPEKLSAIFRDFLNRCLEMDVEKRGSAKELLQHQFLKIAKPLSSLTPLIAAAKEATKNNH
Chain of UniProt Q96RR4 (whole entry, looked up): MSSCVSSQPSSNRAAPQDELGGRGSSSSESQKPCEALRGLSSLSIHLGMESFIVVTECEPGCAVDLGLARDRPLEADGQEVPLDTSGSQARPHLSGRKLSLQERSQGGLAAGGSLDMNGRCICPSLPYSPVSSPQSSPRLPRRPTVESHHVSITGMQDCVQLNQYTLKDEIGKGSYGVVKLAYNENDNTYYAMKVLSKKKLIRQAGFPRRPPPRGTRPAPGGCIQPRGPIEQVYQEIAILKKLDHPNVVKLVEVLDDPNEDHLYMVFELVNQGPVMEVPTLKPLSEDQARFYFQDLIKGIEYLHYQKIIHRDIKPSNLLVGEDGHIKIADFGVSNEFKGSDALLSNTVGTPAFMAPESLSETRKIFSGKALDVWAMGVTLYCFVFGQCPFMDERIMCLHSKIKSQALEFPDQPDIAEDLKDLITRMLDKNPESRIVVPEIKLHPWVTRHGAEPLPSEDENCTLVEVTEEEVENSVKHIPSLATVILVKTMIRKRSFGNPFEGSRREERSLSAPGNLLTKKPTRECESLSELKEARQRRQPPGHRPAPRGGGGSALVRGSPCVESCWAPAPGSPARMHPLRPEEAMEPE
Chain of UniProt Q16832 (whole entry, looked up): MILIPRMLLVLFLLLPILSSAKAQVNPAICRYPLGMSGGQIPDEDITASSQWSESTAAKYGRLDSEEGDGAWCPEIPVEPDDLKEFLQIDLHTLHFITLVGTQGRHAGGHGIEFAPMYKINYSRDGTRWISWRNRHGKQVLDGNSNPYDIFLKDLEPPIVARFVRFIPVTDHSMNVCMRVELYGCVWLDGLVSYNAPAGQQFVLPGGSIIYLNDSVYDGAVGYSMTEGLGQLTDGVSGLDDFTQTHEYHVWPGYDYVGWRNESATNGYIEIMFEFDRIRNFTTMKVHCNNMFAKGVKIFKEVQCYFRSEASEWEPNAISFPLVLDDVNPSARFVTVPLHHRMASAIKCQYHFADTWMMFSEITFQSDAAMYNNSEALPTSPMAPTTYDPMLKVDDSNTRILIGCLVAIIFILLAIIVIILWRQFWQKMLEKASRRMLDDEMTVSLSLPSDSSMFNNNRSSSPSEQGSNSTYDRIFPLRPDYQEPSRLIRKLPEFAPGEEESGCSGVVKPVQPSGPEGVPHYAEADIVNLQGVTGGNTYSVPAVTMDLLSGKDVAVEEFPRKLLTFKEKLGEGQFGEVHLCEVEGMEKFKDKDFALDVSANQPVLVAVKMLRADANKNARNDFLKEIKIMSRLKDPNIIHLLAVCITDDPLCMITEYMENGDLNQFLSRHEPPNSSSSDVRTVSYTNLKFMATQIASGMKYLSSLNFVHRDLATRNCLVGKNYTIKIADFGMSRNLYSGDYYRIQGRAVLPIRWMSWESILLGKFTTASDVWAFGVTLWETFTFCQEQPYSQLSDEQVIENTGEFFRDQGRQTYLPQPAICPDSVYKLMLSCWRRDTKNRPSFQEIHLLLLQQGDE
Chain of UniProt Q16566 (whole entry, looked up): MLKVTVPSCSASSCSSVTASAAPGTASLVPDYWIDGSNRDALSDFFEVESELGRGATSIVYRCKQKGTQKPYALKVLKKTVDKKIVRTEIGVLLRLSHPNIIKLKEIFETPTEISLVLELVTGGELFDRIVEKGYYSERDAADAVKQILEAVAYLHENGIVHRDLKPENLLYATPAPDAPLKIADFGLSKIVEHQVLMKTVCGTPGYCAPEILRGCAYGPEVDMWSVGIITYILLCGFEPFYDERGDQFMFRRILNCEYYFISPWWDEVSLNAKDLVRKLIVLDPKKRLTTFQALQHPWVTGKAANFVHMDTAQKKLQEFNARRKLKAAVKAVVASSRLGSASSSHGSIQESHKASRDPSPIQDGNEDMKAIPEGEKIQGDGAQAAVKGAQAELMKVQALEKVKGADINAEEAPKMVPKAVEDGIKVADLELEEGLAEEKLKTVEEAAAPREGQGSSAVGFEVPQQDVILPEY
Chain of UniProt P27037 (whole entry, looked up): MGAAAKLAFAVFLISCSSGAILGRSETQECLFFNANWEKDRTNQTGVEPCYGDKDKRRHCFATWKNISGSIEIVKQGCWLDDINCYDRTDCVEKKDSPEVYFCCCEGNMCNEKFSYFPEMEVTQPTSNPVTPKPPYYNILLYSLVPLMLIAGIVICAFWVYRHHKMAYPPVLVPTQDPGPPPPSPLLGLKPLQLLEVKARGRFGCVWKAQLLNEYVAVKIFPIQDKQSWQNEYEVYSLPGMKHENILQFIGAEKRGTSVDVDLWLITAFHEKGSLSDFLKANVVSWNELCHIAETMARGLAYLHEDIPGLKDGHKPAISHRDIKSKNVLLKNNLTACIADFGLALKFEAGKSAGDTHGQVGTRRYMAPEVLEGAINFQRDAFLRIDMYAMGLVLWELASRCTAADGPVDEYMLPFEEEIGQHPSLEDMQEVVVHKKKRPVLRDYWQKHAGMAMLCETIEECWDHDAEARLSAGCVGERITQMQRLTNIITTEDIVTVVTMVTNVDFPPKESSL
Chain of UniProt Q9BUB5 (whole entry, looked up): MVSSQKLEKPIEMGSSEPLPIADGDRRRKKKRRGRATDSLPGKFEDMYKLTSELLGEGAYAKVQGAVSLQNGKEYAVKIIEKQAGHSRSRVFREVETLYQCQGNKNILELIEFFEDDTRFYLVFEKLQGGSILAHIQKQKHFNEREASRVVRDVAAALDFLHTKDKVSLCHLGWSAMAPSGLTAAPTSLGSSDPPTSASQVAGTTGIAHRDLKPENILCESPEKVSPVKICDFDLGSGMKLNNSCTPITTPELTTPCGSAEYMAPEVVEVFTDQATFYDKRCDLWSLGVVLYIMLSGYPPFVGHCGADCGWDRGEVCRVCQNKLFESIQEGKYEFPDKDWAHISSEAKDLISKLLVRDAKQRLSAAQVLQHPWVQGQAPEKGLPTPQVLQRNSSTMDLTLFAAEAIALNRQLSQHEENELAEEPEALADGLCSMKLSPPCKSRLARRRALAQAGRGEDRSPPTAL
Chain of UniProt Q9H2K8 (whole entry, looked up): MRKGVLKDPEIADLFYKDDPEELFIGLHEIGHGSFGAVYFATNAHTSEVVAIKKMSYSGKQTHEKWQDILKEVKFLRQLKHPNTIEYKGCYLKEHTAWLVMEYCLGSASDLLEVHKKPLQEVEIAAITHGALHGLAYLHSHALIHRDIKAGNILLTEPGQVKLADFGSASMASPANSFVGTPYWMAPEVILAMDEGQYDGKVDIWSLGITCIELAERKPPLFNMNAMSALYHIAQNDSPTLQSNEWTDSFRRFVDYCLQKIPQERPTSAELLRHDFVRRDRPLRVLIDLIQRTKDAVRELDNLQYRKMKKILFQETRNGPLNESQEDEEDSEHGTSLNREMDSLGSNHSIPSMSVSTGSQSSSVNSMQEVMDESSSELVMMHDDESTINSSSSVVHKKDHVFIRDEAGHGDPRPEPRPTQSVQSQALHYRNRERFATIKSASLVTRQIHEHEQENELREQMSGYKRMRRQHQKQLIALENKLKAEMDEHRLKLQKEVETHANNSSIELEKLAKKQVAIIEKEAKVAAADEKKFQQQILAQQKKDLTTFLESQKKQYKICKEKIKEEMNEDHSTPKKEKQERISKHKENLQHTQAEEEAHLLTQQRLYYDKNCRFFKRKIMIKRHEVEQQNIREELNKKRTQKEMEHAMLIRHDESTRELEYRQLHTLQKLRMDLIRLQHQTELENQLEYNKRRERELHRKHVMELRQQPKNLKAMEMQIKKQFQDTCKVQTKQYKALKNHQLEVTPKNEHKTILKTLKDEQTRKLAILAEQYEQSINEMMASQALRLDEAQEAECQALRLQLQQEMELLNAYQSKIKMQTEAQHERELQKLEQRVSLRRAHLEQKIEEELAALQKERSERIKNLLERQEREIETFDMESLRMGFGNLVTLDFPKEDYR

Series 1
Target: Casein kinase I isoform epsilon (CSNK1E, Homo sapiens, UniProt P49674)
Chain of UniProt P49674 (whole entry, looked up): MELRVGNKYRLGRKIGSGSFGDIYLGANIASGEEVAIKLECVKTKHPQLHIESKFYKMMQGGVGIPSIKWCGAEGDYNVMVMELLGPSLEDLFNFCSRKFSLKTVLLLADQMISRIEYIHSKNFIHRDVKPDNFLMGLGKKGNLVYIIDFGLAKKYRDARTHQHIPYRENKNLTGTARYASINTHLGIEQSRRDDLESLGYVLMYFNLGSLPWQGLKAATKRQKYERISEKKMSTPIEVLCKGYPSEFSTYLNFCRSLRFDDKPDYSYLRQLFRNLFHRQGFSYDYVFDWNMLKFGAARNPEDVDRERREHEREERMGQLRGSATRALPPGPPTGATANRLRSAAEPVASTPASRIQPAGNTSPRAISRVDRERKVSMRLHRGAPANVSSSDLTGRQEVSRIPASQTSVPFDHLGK
Observed: enzyme activity
Mode: inhibitor
Tested at: 0.5 µM
Baseline: control
Quantity: remaining activity
COc1cc2ncnc(Nc3cccc(Cl)c3)c2cc1OC: 75.3%
N#C/C(=C\c1ccc(O)c(O)c1)C(=O)NCc1ccccc1: 86.3%
Cc1cn(-c2cc(NC(=O)c3ccc(C)c(Nc4nccc(-c5cccnc5)n4)c3)cc(C(F)(F)F)c2)cn1: 101%
c1ccc(-c2[nH]ncc2-c2ccnc3ccccc23)nc1: 53.9%
Nc1cccc(-c2cc3c(Oc4cccc(O)c4)ncnc3[nH]2)c1: 92.9%
Cc1cc2ncc(-c3ccccc3)nc2cc1C: 85.5%
O=C(NC(NC(=S)Nc1ccc(F)c([N+](=O)[O-])c1)C(Cl)(Cl)Cl)C(c1ccccc1)c1ccccc1 (stereo not drawn): 111%
CCN(CC)CCNC(=O)c1c(C)[nH]c(/C=C2\C(=O)Nc3ccc(F)cc32)c1C: 46.9%
N#Cc1c(NC(=O)c2cccc3ccccc23)sc2c1CCCC2: 102%
c1ccc(-c2cnc(Nc3ccc(OCCN4CCCC4)cc3)s2)cc1: 81.2%
CCN(CC)C(=O)c1ccc(Nc2nc(OCC3CCCCC3)c3[nH]cnc3n2)cc1: 95.6%

Series 2
Structure (SMILES): COc1ccc2cc(OCC3(C(=O)O)CN(C(=O)c4ccc(F)cc4)C3)ccc2c1
Tested at: 1 µM
Quantity: remaining binding
MAP kinase-interacting serine/threonine-protein kinase 1 (MKNK1, Homo sapiens, UniProt Q9BUB5); cell-free assay, competition with immobilised ligand: 93%
Serine/threonine-protein kinase SIK1 (SIK1, Homo sapiens, UniProt P57059); competition binding: 97%
Cyclin-G-associated kinase (GAK, Homo sapiens, UniProt O14976); cell-free assay, competition with immobilised ligand: 88%
Serine/threonine-protein kinase Nek7 (NEK7, Homo sapiens, UniProt Q8TDX7); cell-free assay, competition with immobilised ligand: 100%
Serine/threonine-protein kinase PAK 1 (PAK1, Homo sapiens, UniProt Q13153); cell-free assay, competition with immobilised ligand: 87%
Calcium/calmodulin-dependent protein kinase type IV (CAMK4, Homo sapiens, UniProt Q16566); cell-free assay, competition with immobilised ligand: 88%
Activin receptor type-2A (ACVR2A, Homo sapiens, UniProt P27037); cell-free assay, competition with immobilised ligand: 100%
Mast/stem cell growth factor receptor Kit (KIT, Homo sapiens, UniProt P10721, D816H); cell-free assay, competition with immobilised ligand: 82%
Receptor-type tyrosine-protein kinase FLT3 (FLT3, Homo sapiens, UniProt P36888, D835V); cell-free assay, competition with immobilised ligand: 100%
Calcium/calmodulin-dependent protein kinase kinase 2 (CAMKK2, Homo sapiens, UniProt Q96RR4); cell-free assay, competition with immobilised ligand: 94%
Dual serine/threonine and tyrosine protein kinase (DSTYK, Homo sapiens, UniProt Q6XUX3); cell-free assay, competition with immobilised ligand: 100%
Serine/threonine-protein kinase TAO3 (TAOK3, Homo sapiens, UniProt Q9H2K8); binding, competition with immobilised ligand: 35%
Discoidin domain-containing receptor 2 (DDR2, Homo sapiens, UniProt Q16832); cell-free assay, competition with immobilised ligand: 100%
Cyclin-dependent kinase 15 (CDK15, Homo sapiens, UniProt Q96Q40); cell-free assay, competition with immobilised ligand: 100%
Casein kinase I isoform epsilon (CSNK1E, Homo sapiens, UniProt P49674); cell-free assay, competition with immobilised ligand: 94%
Phosphatidylinositol 3-kinase catalytic subunit type 3 (PIK3C3, Homo sapiens, UniProt Q8NEB9); cell-free assay, competition with immobilised ligand: 100%

Series 3
Organism: Sarcocystis neurona
Observed: parasite growth
Tested at: 10 µM
Time: 96 h
Setting: second screen
Baseline: untreated
Quantity: log2 fold change
NC(=O)N1c2ccccc2CC(=O)c2ccccc21: -1.09
CO[C@@]1(NC(=O)Cc2cccs2)C(=O)N2C(C(=O)O)=C(COC(N)=O)CS[C@@H]21: 0.24
CC(=O)[C@]1(O)Cc2c(O)c3c(c(O)c2[C@@H](O[C@H]2C[C@H](N)[C@H](O)[C@H](C)O2)C1)C(=O)c1ccccc1C3=O: -6.26
CC[N+](C)(C)c1cccc(O)c1: 0.2
CN(CCCN1c2ccccc2CCc2ccccc21)CC(=O)c1ccc(Cl)cc1: -0.0535
COc1ccc2[nH]c([S+]([O-])Cc3ncc(C)c(OC)c3C)nc2c1 (stereo not drawn): 0.45
CCCNCC(O)COc1ccccc1C(=O)CCc1ccccc1 (stereo not drawn): -1.47
CC(=O)O[C@@]12CO[C@@H]1C[C@H](O)[C@@]1(C)C(=O)[C@H](O)C3=C(C)[C@@H](OC(=O)[C@H](O)[C@@H](NC(=O)OC(C)(C)C)c4ccccc4)C[C@@](O)([C@@H](OC(=O)c4ccccc4)[C@H]21)C3(C)C: -1

Mixed results
CCC[C@H]1NC(=O)CSC[C@@H](C(=O)OCC)N(C)C(=O)[C@H](CC(C)C)NC(=O)[C@@H](C)N(C)C(=O)[C@H](CC(C)C)NC(=O)[C@H](C)N(C)C(=O)[C@H]2CCCN2C(=O)[C@H](CC(C)C)NC(=O)CN(C)C1=O — logD (hydrocarbon/water): 0.689

For quick reference, copied from above (series 3):
CC(=O)O[C@@]12CO[C@@H]1C[C@H](O)[C@@]1(C)C(=O)[C@H](O)C3=C(C)[C@@H](OC(=O)[C@H](O)[C@@H](NC(=O)OC(C)(C)C)c4ccccc4)C[C@@](O)([C@@H](OC(=O)c4ccccc4)[C@H]21)C3(C)C: -1
CCCNCC(O)COc1ccccc1C(=O)CCc1ccccc1 (stereo not drawn): -1.47
CC(=O)[C@]1(O)Cc2c(O)c3c(c(O)c2[C@@H](O[C@H]2C[C@H](N)[C@H](O)[C@H](C)O2)C1)C(=O)c1ccccc1C3=O: -6.26
CN(CCCN1c2ccccc2CCc2ccccc21)CC(=O)c1ccc(Cl)cc1: -0.0535
CO[C@@]1(NC(=O)Cc2cccs2)C(=O)N2C(C(=O)O)=C(COC(N)=O)CS[C@@H]21: 0.24
